Measured values pooled from the literature.
Numbers after ± are the reported error.
Cell line: A549

CC(C)c1ccc(C(=O)Nc2ccc(CN)cc2)c(O)c1 — CC50 (48 h): > 40 µM
Cc1cccc(-c2cccc(C)n2)n1.[Cl-].[Cl-].[Ru+2].c1ccc(-c2ccccn2)nc1.c1ccc(-c2ccccn2)nc1 — phototoxicity index (resazurin; 72 h, with: 450 nm light, 29.1 J/cm2; baseline: dark IC50 over light IC50): > 4.4
N=C(NO)NN=Cc1nccc2c([N+](=O)[O-])cccc12 — cytotoxic concentration (morphology): > 50 µM
CSCc1ccccn1.F[P-](F)(F)(F)(F)F.F[P-](F)(F)(F)(F)F.[Ru+2].c1ccc(-c2ccccn2)nc1.c1ccc(-c2ccnc3c2ccc2c(-c4ccccc4)ccnc23)cc1 — cellular accumulation ratio (24 h, near dark EC50; baseline: intracellular over incubation concentration): 5
CC1(C(=O)O)CCC2(C(=O)O)CCC3(C)C(=CCC4C5(C)CCC(O)C(C)(C)C5CCC43C)C2C1 (stereo not drawn) — IC50 (cell growth or viability, MTT; 72 h): > 100 µM
CCCCn1cc(C(=O)O)c(=O)c2cc(F)c(Nc3cc(OC)c(OC)c(OC)c3)c([N+](=O)[O-])c21 — IC50 (cell growth or viability, SRB): 45.1 µM
Cc1ncc(COP(=O)(O)O)c(C=NNC(=N)NO)c1O — cytotoxicity (cell morphology; 100 µM): not toxic
CCCCn1cc(C(=O)O)c(=O)c2cc(F)c3c(nnn3-c3ccccc3OC)c21 — IC50 (cell growth, SRB; 72 h): 54.4 ± 9.51 µg/mL
CC(=O)OCC1=CCC2[C@]3(C)COC(c4ccccc4)O[C@@H]3CC[C@@]2(C)[C@@H]1/C=C/C1=CCOC1=O (stereo partly drawn) — growth inhibition (MTT; 20 µM, 48 h, 10% FBS): 48.22 ± 0.27%
CCN1CCC2(CC1)C/C(=N\NC(=O)Nc1ccccc1)c1ccccc1O2 — IC50 (cell growth, MTT; 48 h): 1.9 ± 0.09 µM
COc1ccc(-c2coc3c(CC=C(C)C)c(O)c(CC=C(C)C)c(O)c3c2=O)cc1O — viability (cell growth or viability, MTT; 100 µg/mL): 9.21%
C[C@@]1(CO)CC[C@]2(C(=O)O)CC[C@]3(C)C(=CCC4[C@@]5(C)C[C@@H](O)[C@H](O)[C@@](C)(CO)C5CC[C@]43C)C2C1 (stereo partly drawn) — IC50 (cell growth or viability, MTT; 72 h): > 100 µM
Cc1ccc(O)c(C=NNC(=N)NO)n1 — cytotoxicity (cell morphology; up to 150 µM): not toxic
CC(C)(C)c1ccc(O)c(C(=O)Nc2ccc(CN)cc2)c1 — CC50 (48 h): > 40 µM
CCCCn1cc(C(=O)O)c(=O)c2cc(F)c3c(nnn3-c3ccc(OC)cc3)c21 — IC50 (cell growth or viability, SRB): 125 µM
[Cl-].[Cl-].[Ru+2].c1ccc2nc(-c3ccc4ccccc4n3)ccc2c1.c1ccc2nc(-c3ccc4ccccc4n3)ccc2c1.c1cnc2c(c1)ccc1cccnc12 — phototoxicity index (resazurin; 72 h, with: 450 nm light, 29.1 J/cm2; baseline: dark IC50 over light IC50): 3.4
CCCCn1cc(C(=O)O)c(=O)c2cc(F)c3c(nnn3-c3cccc(OC)c3)c21 — IC50 (cell growth, SRB; 72 h): 70.5 ± 5.28 µg/mL
Cc1cc(N)c2cc(NC(=O)c3ccc4c(-c5ccccc5O)cccc4c3)ccc2n1 — CC50 (cell growth or viability, MTS): 27.3 µM
FC(F)(F)c1ccnc(-c2cc(C(F)(F)F)ccn2)c1.FC(F)(F)c1ccnc(-c2cc(C(F)(F)F)ccn2)c1.[Cl-].[Cl-].[Ru+2].c1cnc2c(c1)ccc1cccnc12 — photocytotoxicity (resazurin; concentration not given, normoxia, visible light): inactive
[Cl-].[Cl-].[Ru+2].c1ccc(-c2ccnc3c2ccc2c(-c4ccccc4)ccnc23)cc1.c1cnc2c(c1)ccc1cccnc12.c1cnc2c(c1)ccc1cccnc12 — phototoxicity index (resazurin; 72 h, with: 450 nm light, 29.1 J/cm2; baseline: dark IC50 over light IC50): 14.8
C=C1CC[C@]2(C(=O)O)CC[C@]3(C)C(=CC[C@@H]4[C@@]5(C)CC[C@H](O)C(C)(C)[C@@H]5CC[C@]43C)[C@@H]2C1 — IC50 (cell growth or viability, MTT; 72 h): 48.8 µM
CC(C)=CCc1c2c(c(O)c3c(=O)c(-c4ccc(O)cc4)coc13)CC(C(C)(C)O)O2 (stereo not drawn) — viability (cell growth or viability, MTT; 100 µg/mL): 7.44%
CCCCn1cc(C(=O)O)c(=O)c2cc(F)c(Nc3cccc(OC)c3)c([N+](=O)[O-])c21 — IC50 (cell growth or viability, SRB): 80 µM
COc1cc2c(cc1O)[C@]1(O)C(=O)c3c(O)cc4c(c3O[C@@H]1CO2)C=CC(C)(C)O4 — viability (cell growth or viability, MTT; 100 µg/mL): 4.85%
CCCC1OC2CC3C4CCC5=CC(=O)C=CC5(C)C4C(O)CC3(C)C2(C(=O)COC(=O)CN2CCN(C)CC2)O1 (stereo not drawn) — IC5 (MTT; 72 h): 13.35 ± 0.11 nM
CC(C)=CCc1cc(-c2coc3cc(O)c(CC=C(C)C)c(O)c3c2=O)ccc1O — viability (cell growth or viability, MTT; 6.25 µg/mL): 107%
[Cl-].[Cl-].[Ru+2].c1ccc(-c2ccccn2)nc1.c1ccc(-c2ccccn2)nc1.c1ccc(-c2ccccn2)nc1 — phototoxicity index (resazurin; 72 h, with: 450 nm light, 29.1 J/cm2; baseline: dark IC50 over light IC50): > 11.6

Some of these lines once more:
[Cl-].[Cl-].[Ru+2].c1ccc2nc(-c3ccc4ccccc4n3)ccc2c1.c1ccc2nc(-c3ccc4ccccc4n3)ccc2c1.c1cnc2c(c1)ccc1cccnc12 — phototoxicity index (resazurin; 72 h, with: 450 nm light, 29.1 J/cm2; baseline: dark IC50 over light IC50): 3.4
CCCCn1cc(C(=O)O)c(=O)c2cc(F)c3c(nnn3-c3cccc(OC)c3)c21 — IC50 (cell growth, SRB; 72 h): 70.5 ± 5.28 µg/mL
